Measured values from different studies.
Several values in a cell are separate wells, animals, samples, runs or records.
B1: erenumab; V domains shown; sequence looked up; VH QVQLVESGGGVVQPGRSLRLSCAASGFTFSSFGMHWVRQAPGKGLEWVAVISFDGSIKYSVDSVKGRFTISRDNSKNTLFLQMNSLRAEDTAVYYCARDRLNYYDSSGYYHYKYYGMAVWGQGTTVTVSS; VL QSVLTQPPSVSAAPGQKVTISCSGSSSNIGNNYVSWYQQLPGTAPKLLIYDNNKRPSGIPDRFSGSKSGTSTTLGITGLQTGDEADYYCGTWDSRLSAVVFGGGTKLTVL
B2: STX8 (Homo sapiens, UniProt Q9UNK0); chain MAPDPWFSTYDSTCQIAQEIAEKIQQRNQYERKGEKAPKLTVTIRALLQNLKEKIALLKDLLLRAVSTHQITQLEGDRRQNLLDDLVTRERLLLASFKNEGAEPDLIRSSLMSEEAKRGAPNPWLFEEPEETRGLGFDEIRQQQQKIIQEQDAGLDALSSIISRQKQMGQEIGNELDEQNEIIDDLANLVENTDEKLRNETRRVNMVDRKSASCGMIMVILLLLVAIVVVAVWPTN
B3: Plxna2 35-703 (Mus musculus, UniProt P70207); chain MPQYSTFHSENRDWTFNHLTVHRRTGAVYVGAINRVYKLTGNLTIQVAHKTGPEEDNKACYPPLIVQPCSEVLTLTNNVNKLLIIDYSENRLLACGSLYQGVCKLLRLDDLFILVEPSHKKEHYLSSVNKTGTMYGVIVRSEGEDGKLFIGTAVDGKQDYFPTLSSRKLPRDPESSAMLDYELHSDFVSSLIKIPSDTLALVSHFDIFYIYGFASGGFVYFLTVQPETPDGMAINSAGDLFYTSRIVRLCKDDPKFHSYVSLPFGCTRAGVEYRLLQAAYLAKPGEALAQAFNISSDEDVLFAIFSKGQKQYHHPPDDSALCAFPIRAINLQIKERLQSCYHGEGNLELNWLLGKDVQCTKAPVPIDDNFCGLDINQPLGGSTPVEGLTLYTTSRDRLTSVASYVYNGYSVVFVGTKSGKLKKIRADGPPHGGVQYEMVSVFKDGSPILRDMAFSINQLYLYVMSERQVTRVPVESCEQYTTCGECLSSGDPHCGWCALHNMCSRRDKCQRAWEANRFAASISQCMSLEVHPNSISVSDHSRLLSLVVNDAPNLSEGIACAFGNLTEVEGQVSGSQVICISPGPKDVPVIPLDQDWFGLELQLRSKETGKIFVSTEFKFYNCSAHQLCLSCVNSAFRCHWCKYRNLCTHDPTTCSFQEGRINVSEDCPQ
B4: UGT1A9 (Homo sapiens, UniProt O60656); chain GKLLVVPMDGSHWFTMRSVVEKLILRGHEVVVVMPEVSWQLGRSLNCTVKTYSTSYTLEDLDREFKAFAHAQWKAQVRSIYSLLMGSYNDIFDLFFSNCRSLFKDKKLVEYLKESSFDAVFLDPFDNCGLIVAKYFSLPSVVFARGILCHYLEEGAQCPAPLSYVPRILLGFSDAMTFKERVRNHIMHLEEHLLCHRFFKNALEIASEILQTPVTEYDLYSHTSIWLLRTDFVLDYPKPVMPNMIFIGGINCHQGKPLPMEFEAYINASGEHGIVVFSLGSMVSEIPEKKAMAIADALGKIPQTVLWRYTGTRPSNLANNTILVKWLPQNDLLGHPMTRAFITHAGSHGVYESICNGVPMVMMPLFGDQMDNAKRMETKGAGVTLNVLEMTSEDLENALKAVINDKSYKENIMRLSSLHKDRPVEPLDLAVFWVEFVMRHKGAPHLRPAAHDLTWYQYHSLDVIGFLLAVVLTVAFITFKCCAYGYRKCLGKKGRVKKAHKSKTH
Chain of UniProt P49685 (whole entry, looked up): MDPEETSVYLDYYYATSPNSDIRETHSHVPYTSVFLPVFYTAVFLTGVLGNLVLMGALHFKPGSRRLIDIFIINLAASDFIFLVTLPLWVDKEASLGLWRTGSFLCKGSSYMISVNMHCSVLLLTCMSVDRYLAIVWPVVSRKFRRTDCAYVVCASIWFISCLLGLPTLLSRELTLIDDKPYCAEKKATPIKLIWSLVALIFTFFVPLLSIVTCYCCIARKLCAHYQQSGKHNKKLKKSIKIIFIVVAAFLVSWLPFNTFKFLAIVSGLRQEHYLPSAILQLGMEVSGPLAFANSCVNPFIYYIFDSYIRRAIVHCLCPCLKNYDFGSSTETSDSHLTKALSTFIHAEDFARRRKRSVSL
Chain of UniProt O35464 (whole entry, unmodified, looked up): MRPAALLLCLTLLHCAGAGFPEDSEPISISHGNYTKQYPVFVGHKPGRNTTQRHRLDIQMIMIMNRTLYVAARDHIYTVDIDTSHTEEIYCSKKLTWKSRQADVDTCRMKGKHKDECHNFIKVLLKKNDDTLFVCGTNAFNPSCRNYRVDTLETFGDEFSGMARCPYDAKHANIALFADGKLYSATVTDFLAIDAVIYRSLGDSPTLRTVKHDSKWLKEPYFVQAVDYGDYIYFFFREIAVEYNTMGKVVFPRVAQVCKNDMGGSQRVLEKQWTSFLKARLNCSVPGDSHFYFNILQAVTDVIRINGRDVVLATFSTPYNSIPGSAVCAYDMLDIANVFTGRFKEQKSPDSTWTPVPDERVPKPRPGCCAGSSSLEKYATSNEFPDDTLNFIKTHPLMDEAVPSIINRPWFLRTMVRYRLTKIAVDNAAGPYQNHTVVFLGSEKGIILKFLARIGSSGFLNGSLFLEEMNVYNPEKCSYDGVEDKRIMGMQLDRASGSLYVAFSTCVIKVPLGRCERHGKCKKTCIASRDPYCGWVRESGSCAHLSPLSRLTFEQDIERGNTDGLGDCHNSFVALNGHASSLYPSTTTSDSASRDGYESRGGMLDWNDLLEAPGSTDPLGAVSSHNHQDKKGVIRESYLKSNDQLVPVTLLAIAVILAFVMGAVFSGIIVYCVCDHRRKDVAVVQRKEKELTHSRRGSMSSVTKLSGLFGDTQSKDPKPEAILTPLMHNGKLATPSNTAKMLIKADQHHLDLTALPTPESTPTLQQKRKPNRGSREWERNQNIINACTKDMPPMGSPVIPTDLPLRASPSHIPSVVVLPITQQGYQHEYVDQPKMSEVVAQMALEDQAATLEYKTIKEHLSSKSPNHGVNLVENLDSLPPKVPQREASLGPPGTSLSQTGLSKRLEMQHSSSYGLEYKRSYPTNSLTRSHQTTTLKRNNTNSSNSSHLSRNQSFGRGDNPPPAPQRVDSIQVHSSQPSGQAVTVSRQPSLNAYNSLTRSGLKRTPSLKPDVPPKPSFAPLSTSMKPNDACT
Chain of UniProt O54912 (whole entry, looked up): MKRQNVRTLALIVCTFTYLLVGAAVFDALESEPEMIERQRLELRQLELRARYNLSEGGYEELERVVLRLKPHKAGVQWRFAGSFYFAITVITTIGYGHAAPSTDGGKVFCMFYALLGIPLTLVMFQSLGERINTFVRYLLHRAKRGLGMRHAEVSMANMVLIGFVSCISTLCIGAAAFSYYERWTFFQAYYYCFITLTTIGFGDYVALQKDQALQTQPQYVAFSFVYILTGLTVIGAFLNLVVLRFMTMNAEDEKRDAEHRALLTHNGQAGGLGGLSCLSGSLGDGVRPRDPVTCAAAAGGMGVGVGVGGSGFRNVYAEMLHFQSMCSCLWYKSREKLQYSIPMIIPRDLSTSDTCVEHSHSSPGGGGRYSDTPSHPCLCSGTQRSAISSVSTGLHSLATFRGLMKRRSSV
Chain of UniProt P47872 (whole entry, looked up): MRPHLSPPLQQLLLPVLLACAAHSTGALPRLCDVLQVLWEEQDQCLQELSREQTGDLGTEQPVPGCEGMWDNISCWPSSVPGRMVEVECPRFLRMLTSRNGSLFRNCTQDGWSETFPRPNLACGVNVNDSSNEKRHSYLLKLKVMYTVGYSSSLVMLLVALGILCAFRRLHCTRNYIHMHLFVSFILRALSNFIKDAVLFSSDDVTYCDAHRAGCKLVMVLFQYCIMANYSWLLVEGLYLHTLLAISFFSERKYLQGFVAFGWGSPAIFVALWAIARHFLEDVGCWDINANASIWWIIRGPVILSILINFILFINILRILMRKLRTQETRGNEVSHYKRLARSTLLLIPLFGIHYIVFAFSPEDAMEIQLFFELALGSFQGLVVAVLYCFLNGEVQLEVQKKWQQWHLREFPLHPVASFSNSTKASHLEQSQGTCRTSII

B1 (erenumab)  pKB (CALCRL/RAMP1 on cells (Homo sapiens); cAMP production, antagonist, Schild analysis; antibody, Cos7; added: αCGRP): 9.04
HSDGTFTSELSRLREGARLQRLL (SCT 1-23 (Homo sapiens))  EC50 (SCTR SNAP-tag fusion, Lumi4-Tb label on SNAP-tag (UniProt P47872); cAMP accumulation, agonist; peptide, CHO-K1): 0.0034 µM
TIMP2 Y90E (Homo sapiens)  inhibition (MMP2 mature, propeptide removed; inhibitor, steady-state kinetics; 15 min, 25 °C; baseline: wild-type TIMP-2, higher = stronger inhibition): 5 fold
TIMP2 N-terminal domain S4E/N38Q/V71N/H97R/T99S  Ki (MMP14 fragment (Homo sapiens); fluorogenic substrate cleavage, inhibitor, enzyme inhibition assay; apparent): 0.00102 µM
bradykinin  IC50 (OppA (Lactococcus lactis); fluorescence polarisation): 6.8 µM and 5.37 µM and 6 µM and 6.3 µM and 7.2 µM and 5.7 µM
B2 (STX8)  current amplitude (Kcnk3 (Rattus norvegicus, UniProt O54912); whole-cell patch clamp; CHO; baseline: TASK-1 alone, higher = larger current): 50%
B3 (Plxna2 35-703)  fold decrease in affinity (Sema6A ectodomain 19-571 (Mus musculus, UniProt O35464); SPR; 25 °C; baseline: plexin-coupled orientation, higher = weaker binding): > 40 fold
EPEPRLWVVPGALPQV (C10ORF99 66-81 (Homo sapiens))  concentration of peak response (GPR15 (Homo sapiens, UniProt P49685); intracellular Ca2+, agonist; peptide, CHO; lower = more potent): 10 nM
B4 (UGT1A9)  Km (O=C(/C=C/c1ccccc1)c1ccccc1O; steady-state kinetics; pH 7.4, 37 °C): 0.77 µM
TPDYLMQLMNDKKLMSSLPNFSGIFNHLERLLDEGISRVRKDMYNDTLNGSTEK (Qki 14-67 C35S/E48G (Mus musculus, UniProt Q9QYS9))  melting temperature (itself; CD thermal melting; 50 µM, homodimer): < 15 °C

For quick reference, copied from above:
B1 (erenumab)  pKB (CALCRL/RAMP1 on cells (Homo sapiens); cAMP production, antagonist, Schild analysis; antibody, Cos7; added: αCGRP): 9.04
